Measurements collected from several papers.
Each numbered part is a random draw from the data of one study; scales do not carry over between parts.

Set 1
Target: Replicase polyprotein 1ab, polymerase (rep, Severe acute respiratory syndrome coronavirus 2, UniProt P0DTD1)
Read-out: enzyme activity
Action: inhibitor
Tested at: 20 µM
| Compound | inhibition [%] |
| --- | --- |
| N#Cc1c(Oc2ccc(F)c(NC(=O)Cc3cccc(C(F)(F)F)c3)c2)ccc2nc(NC(=O)C3CC3)sc12 | -1.55 |
| CC(=O)Oc1ccc(C(c2ccc(OC(C)=O)cc2)c2ccccn2)cc1 | -5.16 |
| N#C/C(=C\c1ccc(O)c(O)c1)C(=O)OCCc1cccs1 | 97.9 |
| Cn1c(=O)c(F)c(Nc2ccc(I)cc2F)c2c(=O)n(C[C@@H](O)CO)cnc21 | -3.22 |
| COc1cccc(OC)c1OCCNCC1COc2ccccc2O1 (stereo not drawn) | -12.6 |
| Cc1ccc(Nc2ncc3c(n2)N(C)C(=O)N(c2cc(NC(=O)c4cccc(C(F)(F)F)c4)ccc2C)C3)cn1 | 2.86 |
| CN(C)C(=O)c1ccc(S(=O)(=O)c2ccc(NC(=O)[C@@](C)(O)C(F)(F)F)c(Cl)c2)cc1 | -0.77 |
| CCCCN1CCC(CNC(=O)c2c3n(c4ccccc24)CCCO3)CC1 | -12.9 |
| NNc1nncc2ccccc12 | 19.9 |
| N[C@@H](C(=O)O)c1ccc(C(=O)O)c(C(=O)O)c1 | -4.41 |
| Cc1ccccc1NC(=O)Nc1ccc(CC(=O)N(C)[C@@H](CC(C)C)C(=O)NCC[C@H](NC(=O)[C@@H]2CCCN2S(=O)(=O)c2cc(Cl)cc(Cl)c2)C(=O)O)cc1 | -12.3 |
| CC(=O)CC(=O)O | 4.3 |
| CCNC(=O)C[C@@H]1N=C(c2ccc(Cl)cc2)c2cc(OC)ccc2-n2c(C)nnc21 | -2.68 |
| CCCN(CCC)C(=O)Cc1c(-c2ccc(Cl)cc2)nc2ccc(Cl)cn12 | -0.98 |
| COc1ccc(Cn2ccc3ccc(C(=O)NO)cc32)cc1 | -3.99 |
| C=C1C[C@@]2(O)O[C@@]3(C[C@H]2C(C)C)[C@@H](C)CC[C@@H]13 | -2.9 |
| COC(=O)C1=C(C)N(C)C(C)=C(C(=O)OC)C1c1ccc(C(F)(F)F)cc1 | 0.63 |
| Cc1cc2nc3ccc(N(C)C)cc3[s+]c2cc1N | 102 |
| CCCOc1ccc2[nH]c(NC(=O)OC)nc2c1 | -2.21 |
| C=C[C@H]1CN2CC[C@H]1C[C@H]2[C@H](OC(=O)OCC)c1ccnc2ccc(OC)cc12 | 0.78 |
| c1cnc(N2CCN(Cc3ccc4c(c3)OCO4)CC2)nc1 | -1.53 |
| COc1cc(O)c2c(c1)C(=O)c1cc(C)cc(O)c1C2=O | -0.14 |
| NCC(=O)Nc1ccc(-n2nc(C(F)(F)F)cc2-c2ccc3c(ccc4ccccc43)c2)cc1 | -11.8 |
| CC[C@H](C)C(=O)O[C@H]1C[C@@H](C)C=C2C=C[C@H](C)[C@H](CC[C@@H]3C[C@@H](O)CC(=O)O3)[C@H]21 | -5.67 |
| CN(C)c1ccc(/C=C2\CCCN=C2c2cccnc2)cc1 | 11.2 |

Set 2
Cell line: HEK-293T-ACE2
Tested at: concentration not given
Relative to: vehicle
| Compound | cell number [%] |
| --- | --- |
| NCCC(O)(P(=O)([O-])O)P(=O)([O-])O.[Na+].[Na+] | 103 |
| CC(C)OC(=O)[C@H](C)N[P@](=O)(OC[C@H]1O[C@@H](n2ccc(=O)[nH]c2=O)[C@](C)(F)[C@@H]1O)Oc1ccccc1 | 98.3 |
| COc1cc2nccc(Oc3ccc(NC(=O)C4(C(=O)Nc5ccc(F)cc5)CC4)cc3)c2cc1OC | 86.3 |

Set 3
Target: Sal-like protein 4, full length isoform A (SALL4, Homo sapiens, UniProt Q9UJQ4, residues 1-1053)
Chain of UniProt Q9UJQ4 (whole entry, looked up): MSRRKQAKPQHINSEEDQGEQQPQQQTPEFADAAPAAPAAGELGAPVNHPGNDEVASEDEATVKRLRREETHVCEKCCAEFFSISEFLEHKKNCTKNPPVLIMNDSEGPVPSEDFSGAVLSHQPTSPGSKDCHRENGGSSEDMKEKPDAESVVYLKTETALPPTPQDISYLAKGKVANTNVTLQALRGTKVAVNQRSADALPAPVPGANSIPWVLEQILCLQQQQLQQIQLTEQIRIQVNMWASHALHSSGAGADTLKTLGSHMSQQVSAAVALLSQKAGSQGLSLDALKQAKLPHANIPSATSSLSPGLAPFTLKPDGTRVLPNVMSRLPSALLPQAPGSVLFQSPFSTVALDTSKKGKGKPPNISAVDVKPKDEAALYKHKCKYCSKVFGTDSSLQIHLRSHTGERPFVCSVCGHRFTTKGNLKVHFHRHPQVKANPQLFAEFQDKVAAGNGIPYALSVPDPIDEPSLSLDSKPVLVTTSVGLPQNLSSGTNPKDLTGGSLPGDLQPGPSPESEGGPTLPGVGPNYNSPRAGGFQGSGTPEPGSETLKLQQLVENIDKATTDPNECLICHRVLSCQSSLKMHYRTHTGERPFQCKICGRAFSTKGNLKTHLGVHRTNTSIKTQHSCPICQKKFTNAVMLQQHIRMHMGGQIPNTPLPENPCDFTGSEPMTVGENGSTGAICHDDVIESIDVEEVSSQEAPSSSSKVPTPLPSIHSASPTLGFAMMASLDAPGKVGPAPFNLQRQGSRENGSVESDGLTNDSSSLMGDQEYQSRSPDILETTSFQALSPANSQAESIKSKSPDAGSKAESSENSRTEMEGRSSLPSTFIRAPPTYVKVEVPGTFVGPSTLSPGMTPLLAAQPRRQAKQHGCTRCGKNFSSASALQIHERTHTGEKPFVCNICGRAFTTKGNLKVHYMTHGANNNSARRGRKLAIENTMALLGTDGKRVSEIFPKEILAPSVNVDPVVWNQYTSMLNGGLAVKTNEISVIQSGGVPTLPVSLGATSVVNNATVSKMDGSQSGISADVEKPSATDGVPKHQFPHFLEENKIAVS
Technique: universal PBM
Form: double-stranded DNA, one strand shown
Medium: in vitro
Tested at: 600 nM
Setting: 8-mer, flanks averaged, mean of replicates
Direction: higher = stronger binding
| Strand | E-score |
| --- | --- |
| AGCTACTA | 0.114 |
| AACCAAAG | 0.129 |
| ATTCGCCG | -0.141 |
| CAGACTAA | -0.0141 |
| CCCATTCG | -0.112 |
| GCAGGTTA | -0.0879 |
| TGATCCCA | -0.071 |
| CCCGTTGA | -0.138 |

Set 4
Target: RNA binding protein fox-1 homolog 2, RRM domain, GST-SBP tag (RBFOX2, Homo sapiens, UniProt O43251-10, residues 100-194)
Technique: RNA Bind-n-Seq
Form: RNA
Medium: in vitro
Tested at: 365 nM
Setting: natural RNA segment, single round, ends assumed
Relative to: no-protein control
Direction: higher = stronger binding
Shared flanks, not repeated: GGGAGUUCUACAGUCCGACGAUC … UGGAAUUCUCGGGUGCCAA
Construct (chain): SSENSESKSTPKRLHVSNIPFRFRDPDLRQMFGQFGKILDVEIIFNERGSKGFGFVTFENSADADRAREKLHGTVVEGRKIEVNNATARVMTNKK
| Strand | RBNS enrichment (R) |
| --- | --- |
| GGGAUUCCCGUGUCAAGCCAGUGAGGGUCUUAGAAAGAAGGACGGGUGUGUCCCAAGGGCACUUGACUCCCGUUUGUGCUUGAGUAUCAGGAAUACCAAAGGGCCCAGGG | 0.506 |
| UCUUGUCCCCUUUGUAAGAAAGAGAUGCUUGCCAUAGAGAAGGACAUGAGUACAUUAAAAAUAAUUUAAUAGCCACAAUAUGAUGUUCUUUAAGCUGCAAAUUGAGUACA | 1.17 |
| UUUGAUUCUACUCUUAUAUGCUGGACUGCAUUCACACAUGGCAUGAAAUAAGUCAGGUUCUUUACAAAUGGUAUUUUGAUAGAUACUGGAUUGUGUUUGUGCCAUAUUUG | 0.355 |
| CUAUUCUCUUCCAGAGUUUUCUUCAACUUCCAUCUUAUAAACCAAGGUAUUUAAAUUGUUCAUCUUAGUUGACUUUCCCAAGCCAUACUUCUAAAACAAAACACCAGCCC | 0.575 |
| UUUGCCCUUCAGGACCCUUCUACUUUUUCCUUCCUGCCCUGUACCUCUCUCUGCUCCUCACCCCCACCCCUGUACCCAGCCACCUUCCUGACUGGGAAGGACAUAAAAGG | 0.822 |
| UGAUCCUUUAUAUGUGUUUGGAGCUAUGAUAAGUUUUAUGGCAAGCAGUUGGUAUUGUUAACUUUUUAUGAUCAUCAAAAGUACAUAAAAGUCCUAUUAAUCCCCUUACU | 0.336 |
| ACUCGCCAAGUAAGGCUUCGUGCAUAGUGUCUUCAUGUCGCGUAUAGUUGAGCGCGUUCUUAGCAGUUGGCUUCAUGGACAACUCAUUAGUGUUUUGACUUUUCUUACCC | 0.382 |
| UUGUACUUGCAUGACAUGGAUAUCUGGUAUCUGAGGACAAGUUCAUUCUUGUGUAUUUAAUAACAAAGGUGGCCCUCUUCAUGUCUGCUCCUCCCUACAGGCACUGUCUG | 1 |

Set 5
Target: Ras GTPase-activating protein-binding protein 1, full length (G3BP1, Homo sapiens, UniProt Q13283)
Chain of UniProt Q13283 (whole entry, looked up): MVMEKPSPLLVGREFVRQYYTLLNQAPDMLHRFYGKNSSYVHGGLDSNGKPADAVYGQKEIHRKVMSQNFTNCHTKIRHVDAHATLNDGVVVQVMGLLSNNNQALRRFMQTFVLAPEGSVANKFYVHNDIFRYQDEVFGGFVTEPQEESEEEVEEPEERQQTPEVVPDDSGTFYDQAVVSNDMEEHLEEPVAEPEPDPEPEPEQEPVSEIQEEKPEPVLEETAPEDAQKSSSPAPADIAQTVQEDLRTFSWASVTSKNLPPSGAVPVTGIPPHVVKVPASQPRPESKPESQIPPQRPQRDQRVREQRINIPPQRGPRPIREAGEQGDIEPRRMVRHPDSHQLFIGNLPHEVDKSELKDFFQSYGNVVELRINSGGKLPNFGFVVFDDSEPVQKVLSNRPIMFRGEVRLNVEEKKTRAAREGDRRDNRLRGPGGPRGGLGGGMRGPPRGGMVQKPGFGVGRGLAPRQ
Technique: RNA Bind-n-Seq
Form: RNA
Medium: in vitro
Tested at: 200 nM
Setting: whole 134-nt RNA, ends assumed
Together with: 150 mM LiCl
Relative to: input library
Direction: higher = stronger binding
All molecules: 7-deaza-guanosine replaces G
Shared flanks, not repeated: GGGAGUUCUACAGUCCGACGAUC … UGGAAUUCUCGGGUGUCAAGG
| Strand | log2 enrichment |
| --- | --- |
| UCAAGUCCUGUGCUACACAUCGUAUGUACCGAAUCGGGGCCGGGCCGGGGCCGGAAAGUAUUAUGUUACGCCGUUCGGAUCUGCACUUCC | 0.361 |
| ACCAUGCAGGUGGGCAUCUUUGGGAAGUGGGGCAAGGGGGGGAUAGGGAGGGGGGUAACACUUUGGGAACAGGUGUUCCCAGGUCGUUUC | 0.51 |
| CUGUGCUACACAUCGUAUGUACCGAAUCGGGGUUUUUUUGGGGUUUUUUUGGGGAAAGGGGAAAGUAUUAUGUUACGCCGUUCGGAUCUG | 1.19 |
| UAACUUUAGAGGAGGAUCUGAUGGAUAUGGCAGUGGACGCGGAUUUGGGGAUGGCUAUAAUGGGUAUGGAGGAGGACCUGGAGGUGGCAA | -0.0698 |
| UCCUGUGCUACACAUCGUAUGUACCGAAUCGGGCCCCCCGGGGCCCCCCGGCCCCCCGGAAAGUAUUAUGUUACGCCGUUCGGAUCUGCA | -0.853 |
| CAAGUCCUGUGCUACACAUCGUAUGUACCGAAUCGGGUGGGAAAAAGGGAAAGGGAAAGUAUUAUGUUACGCCGUUCGGAUCUGCACUUC | -0.831 |
| CAAGUCCUGUGCUACACAUCGUAUGUACCGAAUCGGUUUUUGGUGGUUUUUUUGGAAAGUAUUAUGUUACGCCGUUCGGAUCUGCACUUC | -0.459 |

Set 6
Target: Replicase polyprotein 1ab, main protease (rep, Severe acute respiratory syndrome coronavirus 2, UniProt P0DTD1)
Read-out: enzyme activity
Action: inhibitor
Tested at: 20 µM
Setting: hit confirmation
| Compound | inhibition [%] |
| --- | --- |
| O=C(O)Cn1c2c(c3cc(F)ccc31)CN(C(=O)c1cccc3ccccc13)CC2 | 6.8 |
| CCOC(=O)c1ccc(N2NC(=O)/C(=C/c3ccc([N+](=O)[O-])o3)C2=O)cc1 | 43.8 |
| O=[N+]([O-])/C=C/c1ccc2c(c1)OCO2 | 97.4 |

Some of these lines once more (set 3):
| Strand | E-score |
| --- | --- |
| AGCTACTA | 0.114 |
| AACCAAAG | 0.129 |
| ATTCGCCG | -0.141 |
| CAGACTAA | -0.0141 |
| CCCATTCG | -0.112 |
| GCAGGTTA | -0.0879 |
| TGATCCCA | -0.071 |
| CCCGTTGA | -0.138 |
